Measurements pooled from the literature.
A part holds a random share of what one study measured.
Sequence of UniProt P25021 (whole entry, looked up): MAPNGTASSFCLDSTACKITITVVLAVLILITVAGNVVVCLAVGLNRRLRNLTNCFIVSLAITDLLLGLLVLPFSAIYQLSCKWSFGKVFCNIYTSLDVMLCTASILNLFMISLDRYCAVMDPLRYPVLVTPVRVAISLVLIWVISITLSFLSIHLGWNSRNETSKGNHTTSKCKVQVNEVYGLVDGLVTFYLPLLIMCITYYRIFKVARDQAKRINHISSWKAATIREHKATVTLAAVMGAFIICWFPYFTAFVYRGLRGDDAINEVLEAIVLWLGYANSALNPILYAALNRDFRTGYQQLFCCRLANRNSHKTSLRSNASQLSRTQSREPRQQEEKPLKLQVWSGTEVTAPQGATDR
Sequence of UniProt P25100 (whole entry, looked up): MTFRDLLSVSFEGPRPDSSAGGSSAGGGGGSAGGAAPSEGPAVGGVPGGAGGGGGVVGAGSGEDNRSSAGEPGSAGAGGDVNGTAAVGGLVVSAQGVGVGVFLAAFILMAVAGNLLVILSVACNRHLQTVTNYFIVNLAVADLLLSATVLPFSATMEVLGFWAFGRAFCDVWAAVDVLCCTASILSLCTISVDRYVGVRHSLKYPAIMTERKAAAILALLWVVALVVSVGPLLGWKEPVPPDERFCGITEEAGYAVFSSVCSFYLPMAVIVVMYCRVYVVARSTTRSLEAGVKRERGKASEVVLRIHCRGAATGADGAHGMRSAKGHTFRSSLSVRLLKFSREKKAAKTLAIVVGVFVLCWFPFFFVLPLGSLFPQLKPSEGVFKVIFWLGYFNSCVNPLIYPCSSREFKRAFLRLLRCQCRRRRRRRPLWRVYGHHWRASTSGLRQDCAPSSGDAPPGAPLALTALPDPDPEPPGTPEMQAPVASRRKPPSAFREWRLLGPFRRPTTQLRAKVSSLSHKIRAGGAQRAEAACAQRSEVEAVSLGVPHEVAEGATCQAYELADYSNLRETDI
Sequence of UniProt O15530 (whole entry, looked up): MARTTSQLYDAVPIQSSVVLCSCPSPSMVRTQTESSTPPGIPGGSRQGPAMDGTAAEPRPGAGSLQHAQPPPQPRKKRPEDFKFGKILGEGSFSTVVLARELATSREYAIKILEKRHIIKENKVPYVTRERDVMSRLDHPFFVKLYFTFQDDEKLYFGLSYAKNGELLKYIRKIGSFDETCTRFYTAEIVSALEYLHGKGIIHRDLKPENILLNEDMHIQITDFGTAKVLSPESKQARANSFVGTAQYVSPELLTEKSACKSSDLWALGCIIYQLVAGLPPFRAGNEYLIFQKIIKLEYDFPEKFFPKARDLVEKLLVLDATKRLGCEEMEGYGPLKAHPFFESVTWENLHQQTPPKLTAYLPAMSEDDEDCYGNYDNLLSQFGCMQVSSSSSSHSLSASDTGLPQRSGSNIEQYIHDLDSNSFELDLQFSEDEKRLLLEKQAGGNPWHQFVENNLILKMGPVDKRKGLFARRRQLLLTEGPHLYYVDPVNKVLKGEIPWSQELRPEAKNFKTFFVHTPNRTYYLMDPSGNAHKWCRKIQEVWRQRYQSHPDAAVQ
Sequence of UniProt Q9UPE1 (whole entry, looked up): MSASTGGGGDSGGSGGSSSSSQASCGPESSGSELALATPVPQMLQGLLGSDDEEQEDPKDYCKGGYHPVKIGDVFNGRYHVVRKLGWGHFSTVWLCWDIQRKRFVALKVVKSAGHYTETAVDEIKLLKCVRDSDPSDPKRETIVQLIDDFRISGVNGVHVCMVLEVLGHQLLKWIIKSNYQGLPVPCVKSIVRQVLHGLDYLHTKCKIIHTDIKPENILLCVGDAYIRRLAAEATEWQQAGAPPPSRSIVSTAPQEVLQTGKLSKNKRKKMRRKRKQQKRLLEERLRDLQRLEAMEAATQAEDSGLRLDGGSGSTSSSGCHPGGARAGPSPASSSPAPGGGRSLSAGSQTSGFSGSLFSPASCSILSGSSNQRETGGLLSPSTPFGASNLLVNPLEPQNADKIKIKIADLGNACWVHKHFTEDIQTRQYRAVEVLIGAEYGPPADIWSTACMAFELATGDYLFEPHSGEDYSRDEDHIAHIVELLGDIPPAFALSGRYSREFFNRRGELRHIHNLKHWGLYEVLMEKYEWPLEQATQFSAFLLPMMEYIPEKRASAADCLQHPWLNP
Sequence of UniProt Q9H3N8 (whole entry, looked up): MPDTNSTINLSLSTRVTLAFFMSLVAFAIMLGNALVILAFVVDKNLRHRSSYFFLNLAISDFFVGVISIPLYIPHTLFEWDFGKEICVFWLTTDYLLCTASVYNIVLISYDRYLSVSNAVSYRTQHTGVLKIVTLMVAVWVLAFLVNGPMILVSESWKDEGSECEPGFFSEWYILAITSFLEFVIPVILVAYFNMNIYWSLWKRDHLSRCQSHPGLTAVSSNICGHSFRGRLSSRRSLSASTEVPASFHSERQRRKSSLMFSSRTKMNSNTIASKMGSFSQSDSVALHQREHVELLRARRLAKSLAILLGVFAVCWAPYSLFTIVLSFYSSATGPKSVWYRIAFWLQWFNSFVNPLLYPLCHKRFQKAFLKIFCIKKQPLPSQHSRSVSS
Sequence of UniProt P08172 (whole entry, looked up): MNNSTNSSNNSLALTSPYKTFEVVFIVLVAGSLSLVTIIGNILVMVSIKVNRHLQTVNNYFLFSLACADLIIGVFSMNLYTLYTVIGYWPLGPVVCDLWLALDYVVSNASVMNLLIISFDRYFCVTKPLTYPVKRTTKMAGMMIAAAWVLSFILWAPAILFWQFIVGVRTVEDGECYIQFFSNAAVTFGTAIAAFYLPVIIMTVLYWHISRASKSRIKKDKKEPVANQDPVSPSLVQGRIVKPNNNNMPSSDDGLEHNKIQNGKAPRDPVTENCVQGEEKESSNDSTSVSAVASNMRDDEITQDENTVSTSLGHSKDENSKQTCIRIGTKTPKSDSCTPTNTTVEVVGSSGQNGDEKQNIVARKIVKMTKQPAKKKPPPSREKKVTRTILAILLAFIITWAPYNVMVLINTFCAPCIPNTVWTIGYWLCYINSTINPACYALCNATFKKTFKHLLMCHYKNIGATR

Study 1
SMILES: Cc1sc(C(=O)NC2COC2)cc1-n1cc(NC(=O)Nc2c(F)cccc2Cl)cn1
Concentration: 10 µM
Quantity: remaining activity
BRAF (Homo sapiens, UniProt P15056); enzyme activity; baseline: untreated control: 101%
PTK2 (Homo sapiens, UniProt Q05397); enzyme activity; baseline: untreated control: 103%
TTBK1 (Homo sapiens, UniProt Q5TCY1); enzyme activity; baseline: untreated control: 102%
OXSR1 (Homo sapiens, UniProt O95747); enzyme activity; baseline: untreated control: 118%
AKT1 (Homo sapiens, UniProt P31749); enzyme activity; baseline: untreated control: 101%
ABL2 (Homo sapiens, UniProt P42684); enzyme activity; baseline: untreated control: 122%
DMPK (Homo sapiens, UniProt Q09013); enzyme activity; baseline: untreated control: 94.2%
PAK3 (Homo sapiens, UniProt O75914); enzyme activity; baseline: untreated control: 109%
SRPK3 (Homo sapiens, UniProt Q9UPE1); kinase activity, kinase panel profiling: 98.9%
IRAK4 (Homo sapiens, UniProt Q9NWZ3); enzyme activity; baseline: untreated control: 102%
MAP3K2 (Homo sapiens, UniProt Q9Y2U5); enzyme activity; baseline: untreated control: 88.1%
SRC (Homo sapiens, UniProt P12931); enzyme activity; baseline: untreated control: 96%
PDPK1 (Homo sapiens, UniProt O15530); enzyme activity; baseline: untreated control: 95.2%

Study 2
Structure (SMILES): CC(C)S(=O)(=O)c1cc2c(Nc3ccc4sc(C5CCCC5)nc4c3)ccnc2cc1OCCO
Target: Receptor-interacting serine/threonine-protein kinase 3 (RIPK3, Homo sapiens, UniProt Q9Y572)
Sequence of UniProt Q9Y572 (whole entry, looked up): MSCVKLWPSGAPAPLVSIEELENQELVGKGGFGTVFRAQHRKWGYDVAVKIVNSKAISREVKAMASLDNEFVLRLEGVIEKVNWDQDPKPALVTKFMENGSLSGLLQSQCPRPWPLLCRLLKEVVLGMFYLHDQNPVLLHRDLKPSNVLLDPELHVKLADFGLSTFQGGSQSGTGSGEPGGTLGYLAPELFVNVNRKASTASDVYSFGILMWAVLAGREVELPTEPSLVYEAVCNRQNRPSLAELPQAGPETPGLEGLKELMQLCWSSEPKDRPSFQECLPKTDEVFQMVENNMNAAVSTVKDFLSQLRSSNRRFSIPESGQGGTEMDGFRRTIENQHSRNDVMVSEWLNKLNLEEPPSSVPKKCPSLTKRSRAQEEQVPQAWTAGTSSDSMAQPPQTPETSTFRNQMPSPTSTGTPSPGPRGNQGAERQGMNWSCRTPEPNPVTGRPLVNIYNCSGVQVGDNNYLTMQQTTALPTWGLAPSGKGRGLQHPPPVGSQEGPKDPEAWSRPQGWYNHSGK
Effect on: kinase activity
Mode: inhibitor
Technique: ADP-Glo
Time: 1 h
Quantity: inhibition
18.75 nM: 60.6%
37.5 nM: 87.9%
300 nM: 102%
150 nM: 101%

Study 3
SMILES: C=CCc1ccc(O)c(-c2ccc(O)c(CC=C)c2)c1
Quantity: normalized current
ANO1 del476-501/E659A: Anoctamin-1 (ANO1, Homo sapiens, UniProt Q5XXA6, del476-501/E659A)
Sequence of UniProt Q5XXA6 (whole entry, unmodified, looked up): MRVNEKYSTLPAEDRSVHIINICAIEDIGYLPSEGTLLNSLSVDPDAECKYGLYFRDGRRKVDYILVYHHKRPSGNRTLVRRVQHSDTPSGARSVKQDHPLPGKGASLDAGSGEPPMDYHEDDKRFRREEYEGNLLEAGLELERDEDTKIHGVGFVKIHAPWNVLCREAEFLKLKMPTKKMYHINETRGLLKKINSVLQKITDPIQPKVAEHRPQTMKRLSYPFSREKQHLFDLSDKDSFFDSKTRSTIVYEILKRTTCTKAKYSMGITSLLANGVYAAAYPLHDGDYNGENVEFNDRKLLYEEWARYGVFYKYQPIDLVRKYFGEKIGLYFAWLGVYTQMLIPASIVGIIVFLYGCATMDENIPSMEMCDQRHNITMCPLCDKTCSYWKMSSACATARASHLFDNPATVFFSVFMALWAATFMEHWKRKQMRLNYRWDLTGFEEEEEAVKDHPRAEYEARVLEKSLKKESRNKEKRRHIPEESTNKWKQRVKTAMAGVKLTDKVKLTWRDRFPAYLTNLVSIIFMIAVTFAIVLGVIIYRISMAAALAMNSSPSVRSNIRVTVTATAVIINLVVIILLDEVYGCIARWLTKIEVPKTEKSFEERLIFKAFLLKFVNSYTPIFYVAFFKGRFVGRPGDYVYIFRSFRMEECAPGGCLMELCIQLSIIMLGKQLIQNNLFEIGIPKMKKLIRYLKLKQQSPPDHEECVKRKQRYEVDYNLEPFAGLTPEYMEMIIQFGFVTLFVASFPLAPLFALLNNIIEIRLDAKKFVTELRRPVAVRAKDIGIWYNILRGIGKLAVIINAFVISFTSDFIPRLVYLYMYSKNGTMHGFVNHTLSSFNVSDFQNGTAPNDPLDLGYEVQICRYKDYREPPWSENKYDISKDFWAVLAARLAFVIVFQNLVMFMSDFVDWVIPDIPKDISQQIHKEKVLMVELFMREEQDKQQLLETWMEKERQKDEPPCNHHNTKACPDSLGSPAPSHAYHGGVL
ANO1 del476-501/F628A: Anoctamin-1 (ANO1, Homo sapiens, UniProt Q5XXA6, del476-501/F628A)
ANO1 del476-501: Anoctamin-1 (ANO1, Homo sapiens, UniProt Q5XXA6, del476-501)
Anoctamin-1 (ANO1, Homo sapiens, UniProt Q5XXA6, del476-501/E649A); ion current, inside-out patch clamp; 10 µM, E623A mutant at 120 mV: 1
ANO1 del476-501/E659A; chloride current, inside-out patch clamp; 10 µM, membrane voltage -20 mV: -0.192
ANO1 del476-501/F628A; chloride current, whole-cell voltage clamp; 30 µM, concentration-response at -100 mV, added: 4 µM Ca2+: -0.419
ANO1 del476-501; chloride current, whole-cell voltage clamp; 3 µM, wild type, concentration-response at 80 mV, added: 4 µM Ca2+: 0.595
ANO1 del476-501; chloride current, whole-cell voltage clamp; 1 µM, wild type, concentration-response at -100 mV, added: 4 µM Ca2+: -0.742
Anoctamin-1 (ANO1, Homo sapiens, UniProt Q5XXA6, del476-501/K629A); chloride current, inside-out patch clamp; 10 µM, membrane voltage 20 mV: 0.0945
ANO1 del476-501; chloride current, whole-cell voltage clamp; 1 µM, wild type, I-V at 20 mV, added: 4 µM Ca2+: 0.182
Anoctamin-1 (ANO1, Homo sapiens, UniProt Q5XXA6, del476-501/E659A/K629A); chloride current, inside-out patch clamp; 10 µM, membrane voltage 20 mV: 0.167
ANO1 del476-501/F628A; chloride current, whole-cell voltage clamp; 10 µM, concentration-response at -40 mV, added: 4 µM Ca2+: -0.298
ANO1 del476-501; chloride current, whole-cell voltage clamp; 3 µM, wild type, I-V at -20 mV, added: 4 µM Ca2+: -0.149
ANO1 del476-501/E659A; chloride current, inhibitor, inside-out patch clamp; 10 µM, E633A mutant at -100 mV: -0.961

Study 4
Compound: O=C(O)[C@@H]1[C@@H](Cn2nnc3ccccc3c2=O)CC[C@H]1C(=O)c1ccc(OCCC2CCOCC2)cc1
Effect on: binding
Technique: radioligand binding
Concentration: 10 µM
Quantity: inhibition
CHRM4 (Homo sapiens, UniProt P08173): -7.11%
DRD1 (Homo sapiens, UniProt P21728): 4.76%
HTR5A (Homo sapiens, UniProt P47898): 1.33%
ADRA1D (Homo sapiens, UniProt P25100): 0.08%
ADRB3 (Homo sapiens, UniProt P13945): -31.9%
ADRA2B (Homo sapiens, UniProt P18089): 8.62%
HTR7 (Homo sapiens, UniProt P34969): -2.99%
HRH1 (Homo sapiens, UniProt P35367): 1.6%
HRH4 (Homo sapiens, UniProt Q9H3N8): 3.39%
CHRM2 (Homo sapiens, UniProt P08172): -2.32%
ADRA2C (Homo sapiens, UniProt P18825): 13.1%
ADRA1B (Homo sapiens, UniProt P35368): 6.29%
HTR3A (Homo sapiens, UniProt P46098): -12.4%
HRH2 (Homo sapiens, UniProt P25021): 17.5%
